{"data": "Results gathered from unrelated publications", "note": "Lines come from different studies, so protocols differ."}
{"Compound": "CNC(=O)c1c(C)oc2cc(Oc3ccnc4cc(OCCN5CCOCC5)ccc34)ccc12", "test system": "human", "conditions": "9 mg once daily, cycle 1", "quantity": "maximum haemoglobin level", "result": "19.5 g/dL"}
{"Compound": "CNC(=O)c1cc(C(F)F)ccc1OCCc1cccc(F)c1", "test system": "7H9-Tween-OADC medium", "conditions": "30 (unit not given)", "quantity": "maximum soluble concentration", "result": "50 µM"}
{"Compound": "Cc1cc(N(CCOS(C)(=O)=O)CCOS(C)(=O)=O)ccc1C=O", "test system": "patients with advanced solid tumours", "conditions": "intravenous, phase I first-in-human", "quantity": "maximum tolerated dose", "result": "9 mg/m²"}
{"Compound": "CO[C@H]1C[C@@H]2CC[C@@H](C)[C@@](O)(O2)C(=O)C(=O)N2CCCC[C@H]2C(=O)O[C@H]([C@H](C)C[C@@H]2CC[C@@H](OC(=O)NCCOCCOCCOCCOCCOCCOCCOCCOCCC(=O)N3CCc4cc(Cn5nc(-c6ccc7oc(N)nc7c6)c6c(N)ncnc65)ccc4C3)[C@H](OC)C2)C[C@@H](O)[C@H](C)/C=C(\\C)[C@@H](O)[C@@H](OC)C(=O)[C@H](C)C[C@H](C)/C=C/C=C/C=C/1C", "test system": "patients with advanced solid tumours", "conditions": "intravenous, once weekly, with dexamethasone prophylaxis", "quantity": "maximum tolerated dose", "result": "12 mg"}
{"Compound": "O=C(CCCN1CCC(O)(c2ccc(Cl)cc2)CC1)c1ccc(Br)cc1", "test system": "sheep erythrocytes", "conditions": "1 h, pH 7.5", "quantity": "maximum haemolysis", "result": "9.2%"}
{"Compound": "C[C@@H](N)C1CCN(S(=O)(=O)c2cccc3cnccc23)CC1", "test system": "healthy volunteers", "conditions": "oral, single ascending dose", "quantity": "maximum tolerated dose", "result": "150 mg"}
{"Compound": "N[C@@H]1c2ccccc2OC12CCN(c1cnc3c(N4CCCc5ncccc54)n[nH]c3n1)CC2", "test system": "patients advanced solid tumours", "conditions": "oral, once daily, 21-day cycles", "quantity": "maximum tolerated dose", "result": "100 mg"}
{"Compound": "CNC(=O)c1cc(Oc2ccc(NC(=O)Nc3ccc(Cl)c(C(F)(F)F)c3)cc2)ccn1", "test system": "patients with advanced solid tumours", "conditions": "oral, once daily, 21-day cycle, with: intravenous combination partner, every 3 weeks", "quantity": "maximum tolerated dose", "result": "400 mg"}
{"Compound": "CCC[C@@](N)(CO)CCc1ccc(OCCCCCC(C)C)cc1", "test system": "25% HP-β-CD in water", "quantity": "maximum solubility", "result": "9100 µg/mL"}
{"Compound": "Fc1ccc([C@@H]2CCNC[C@H]2COc2ccc3c(c2)OCO3)cc1", "test": "ECG, Fridericia correction", "test system": "healthy participants", "conditions": "oral, dose not given, -1 h", "quantity": "maximum QTc interval", "result": "415 ms"}
{"Compound": "Cc1cc(C)nc(Nc2ncc(C(=O)NCCc3c(C)[nH]c4ccccc34)cn2)c1", "test system": "cynomolgus monkey liver microsomes", "quantity": "maximum hepatic bioavailability", "result": "36%"}
{"Compound": "Cc1nc(-c2ccc(OCCc3cccc(F)c3)c(C(N)=O)c2)cs1", "test system": "7H9-Tween-OADC medium", "conditions": "30 (unit not given)", "quantity": "maximum soluble concentration", "result": "100 µM"}
{"Compound": "Cc1ccc(C(=O)N(CCCN)C(c2nc3snc(C)c3c(=O)n2Cc2ccccc2)C(C)C)cc1 (stereo not shown)", "test system": "AML patients", "conditions": "intravenous", "quantity": "maximum tolerated dose", "result": "16 mg/day"}
{"note": "For quick reference, copied from above:"}
{"Compound": "C[C@@H](N)C1CCN(S(=O)(=O)c2cccc3cnccc23)CC1", "test system": "healthy volunteers", "conditions": "oral, single ascending dose", "quantity": "maximum tolerated dose", "result": "150 mg"}
{"Compound": "N[C@@H]1c2ccccc2OC12CCN(c1cnc3c(N4CCCc5ncccc54)n[nH]c3n1)CC2", "test system": "patients advanced solid tumours", "conditions": "oral, once daily, 21-day cycles", "quantity": "maximum tolerated dose", "result": "100 mg"}
